Measured values pooled from the literature.
Compare with care: the assays were run in different laboratories. ± marks the error that the study gave.
B1: enzyme (Bacillus pumilus, UniProt A8FFI9); chain EARSIAWSVDEFFKNREGTFVIQEVKEKSPWVYNKKRAKERFAPQSTFKVANALIGLQTGAVRDEYDIKYWDGVKREIDNWNRDHTLGSGMRDSVVWYYQAMARDIGEERMNHWVKAIHYGNKDISGGIDQFWLSSTLRISPIEQVRFLKQLYEETLPFDLKNMRTVKRMMVQEEEKHATLYGKTGSGSDIGWYVGFIKHEHKTYILATNIKGTGIEAKDITYRILKKYHLMEASV
B2: UGT1A9 (Homo sapiens, UniProt O60656); chain GKLLVVPMDGSHWFTMRSVVEKLILRGHEVVVVMPEVSWQLGRSLNCTVKTYSTSYTLEDLDREFKAFAHAQWKAQVRSIYSLLMGSYNDIFDLFFSNCRSLFKDKKLVEYLKESSFDAVFLDPFDNCGLIVAKYFSLPSVVFARGILCHYLEEGAQCPAPLSYVPRILLGFSDAMTFKERVRNHIMHLEEHLLCHRFFKNALEIASEILQTPVTEYDLYSHTSIWLLRTDFVLDYPKPVMPNMIFIGGINCHQGKPLPMEFEAYINASGEHGIVVFSLGSMVSEIPEKKAMAIADALGKIPQTVLWRYTGTRPSNLANNTILVKWLPQNDLLGHPMTRAFITHAGSHGVYESICNGVPMVMMPLFGDQMDNAKRMETKGAGVTLNVLEMTSEDLENALKAVINDKSYKENIMRLSSLHKDRPVEPLDLAVFWVEFVMRHKGAPHLRPAAHDLTWYQYHSLDVIGFLLAVVLTVAFITFKCCAYGYRKCLGKKGRVKKAHKSKTH

Molecule = CC(C)[C@H](NC(=O)[C@@H]1CCCN1C(=O)[C@H](CCCNC(=N)N)NC(=O)[C@H](CS)NC(=O)[C@H](Cc1c[nH]c2ccccc12)NC(=O)[C@H](CCCNC(=N)N)NC(=O)[C@@H](Cc1ccccc1)NC(=O)[C@H](Cc1c[nH]cn1)NC(=O)[C@H](CCC(=O)O)NC(=O)[C@H](CS)NC(=O)[C@H](CS)NC(=O)[C@H](CCCCN)NC(=O)[C@@H]1CC(=O)N[C@@H](CCCNC(=N)N)C(=O)N[C@@H](C)C(=O)N[C@@H](CC(=O)O)C(=O)N[C@H](Cc2ccc(O)cc2)C(=O)N1)C(N)=O [technetium-99m labelled]; test system = C57 mice, blood; setting = intravenous, 0.037 MBq, 2 h; quantity = tissue uptake; value = 0.49 ± 0.31 %ID/g
Molecule = desB30 human insulin; tested on = none; test = reversed-phase chromatography, C4 silica; setting = concentration not given, pH 7.5, up to 40 °C, with: KCl, ethanol; quantity = entropy change of adsorption; value = -510 ± 72 J/(mol·K)
Molecule = B1 (enzyme); tested on = CC1(C)S[C@@H]2[C@H](NC(=O)[C@H](C(=O)O)c3ccsc3)C(=O)N2[C@H]1C(=O)O; test = steady-state kinetics; setting = pH 7; quantity = kcat; value = 39 ± 2 s⁻¹
Molecule = CSCC[C@H](NC(=O)[C@H](CC(C)C)NC(=O)[C@H](Cc1c[nH]cn1)NC(=O)CNC(=O)[C@@H](NC(=O)[C@H](C)NC(=O)[C@H](Cc1c[nH]c2ccccc12)NC(=O)[C@H](CCC(N)=O)NC(=O)CCCCCNC(=O)[C@H](CCC(=O)NCCCC[C@@H]1NC(=O)[C@@H](Cc2ccc(O)cc2)NC(=O)[C@H](CC(=O)O)NC(=O)CNC(=O)[C@H](CCCNC(=N)N)NC1=O)NC(=O)CN1CCN(CC(=O)O)CCN(CC(=O)O)CC1)C(C)C)C(N)=O [copper-64 labelled]; test system = ICR SCID mouse, female, liver; setting = intravenous, 750 kBq, 24 h; quantity = tissue uptake; value = 1.24 ± 0.23 %ID/g
Molecule = COc1cccc2c1C(=O)c1c(O)c3c(c(O)c1C2=O)C[C@@](O)(C(=O)CO)C[C@@H]3O[C@H]1C[C@H](NC(=O)[C@@H]2CCCN2C(=O)CN)[C@H](O)[C@H](C)O1; test system = mouse, E0771 tumour-bearing, liver; setting = intravenous, 92 µmol/kg PhAc-ALGP-Dox; quantity = terminal half-life; value = 888 min
Molecule = CC(C)[C@H](NC(=O)[C@@H]1CCCN1C(=O)[C@H](CCCNC(=N)N)NC(=O)[C@H](CS)NC(=O)[C@H](Cc1c[nH]c2ccccc12)NC(=O)[C@H](CCCNC(=N)N)NC(=O)[C@@H](Cc1ccccc1)NC(=O)[C@H](Cc1c[nH]cn1)NC(=O)[C@H](CCC(=O)O)NC(=O)[C@H](CS)NC(=O)[C@H](CS)NC(=O)[C@H](CCCNC(=N)N)NC(=O)[C@@H]1CC(=O)N[C@@H](CCCNC(=N)N)C(=O)N[C@@H](C)C(=O)N[C@@H](CC(=O)O)C(=O)N[C@H](Cc2ccc(O)cc2)C(=O)N1)C(N)=O [technetium-99m labelled]; test system = C57 mouse, urinary bladder; setting = intravenous, 0.037 MBq, 2 h; quantity = tissue uptake; value = 74.5 ± 7.3 %ID
Molecule = B2 (UGT1A9); tested on = COc1ccccc1-c1oc2ccccc2c(=O)c1O; test = steady-state kinetics; setting = pH 7.4, 37 °C; quantity = Vmax; value = 0.0038 µmol/min/mg
Molecule = insulin degludec; test system = human, severe hepatic impairment, serum; setting = subcutaneous, 0.4 U/kg single dose; quantity = AUC(0-120 h); value = 79.8 nM·h
